Results pooled from the literature.
A part holds a random share of what one study measured. Substitutions count along the parent as printed.
UniProt Q9H2X6, sequence (whole entry, looked up): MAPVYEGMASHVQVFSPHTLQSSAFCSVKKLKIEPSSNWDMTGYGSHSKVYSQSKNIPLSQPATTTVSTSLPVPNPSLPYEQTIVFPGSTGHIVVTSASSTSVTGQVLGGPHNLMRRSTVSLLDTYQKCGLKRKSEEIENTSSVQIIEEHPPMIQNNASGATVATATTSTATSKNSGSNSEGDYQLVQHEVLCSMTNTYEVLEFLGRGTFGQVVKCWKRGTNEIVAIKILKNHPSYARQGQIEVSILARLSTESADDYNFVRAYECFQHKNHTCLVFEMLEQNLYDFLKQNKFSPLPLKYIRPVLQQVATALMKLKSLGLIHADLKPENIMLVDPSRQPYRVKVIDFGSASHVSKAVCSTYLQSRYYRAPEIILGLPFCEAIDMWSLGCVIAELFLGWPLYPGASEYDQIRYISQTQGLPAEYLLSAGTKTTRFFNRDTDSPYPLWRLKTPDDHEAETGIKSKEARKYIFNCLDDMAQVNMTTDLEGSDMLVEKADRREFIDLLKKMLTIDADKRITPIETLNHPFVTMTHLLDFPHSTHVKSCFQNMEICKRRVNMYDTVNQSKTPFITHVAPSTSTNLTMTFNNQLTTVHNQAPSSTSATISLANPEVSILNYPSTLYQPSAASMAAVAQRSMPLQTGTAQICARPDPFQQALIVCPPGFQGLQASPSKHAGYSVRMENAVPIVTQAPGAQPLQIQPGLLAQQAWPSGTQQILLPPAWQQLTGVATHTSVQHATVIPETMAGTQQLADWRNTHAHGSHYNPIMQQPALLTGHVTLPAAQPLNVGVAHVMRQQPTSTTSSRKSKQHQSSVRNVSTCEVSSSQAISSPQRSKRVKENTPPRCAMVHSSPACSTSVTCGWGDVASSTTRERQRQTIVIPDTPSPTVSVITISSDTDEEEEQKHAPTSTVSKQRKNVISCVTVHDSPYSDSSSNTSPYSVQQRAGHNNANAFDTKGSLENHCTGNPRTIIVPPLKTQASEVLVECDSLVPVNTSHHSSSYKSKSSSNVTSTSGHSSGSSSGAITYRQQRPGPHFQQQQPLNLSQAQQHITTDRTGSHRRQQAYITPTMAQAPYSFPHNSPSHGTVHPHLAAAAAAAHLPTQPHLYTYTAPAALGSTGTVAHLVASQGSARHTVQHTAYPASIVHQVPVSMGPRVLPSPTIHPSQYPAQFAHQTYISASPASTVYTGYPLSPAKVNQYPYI

Series 1
Target: Prothrombin, mature alpha-thrombin (F2, Homo sapiens, UniProt P00734)
Method: aptamer microarray, sandwich
Molecule type: DNA with 2'F-ANA
Sample: in vitro
Tested at: 200 nM
Notes: whole 15-mer aptamer, many near background
Added: Cy3 exosite-II aptamer, 400 nM
Direction: higher = stronger binding
Sequence: GGTTGGTGTGGTTGG
| Modification | mean fluorescence intensity [a.u.] |
| --- | --- |
| 2'F-ANA at 2 6 8 9 10 11 12 15 | 121 |
| 2'F-ANA at 9 10 14 | 118 |
| 2'F-ANA at 1 2 6 7 8 10 11 12 13 14 | 56.4 |
| 2'F-ANA at 2 3 5 6 7 9 11 | 69.2 |
| 2'F-ANA at 3 4 5 7 8 9 10 11 12 13 14 15 | 51.6 |
| 2'F-ANA at 2 3 6 8 10 13 | 372 |
| 2'F-ANA at 1 8 9 10 11 13 | 54.2 |
| 2'F-ANA at 2 3 6 7 10 14 15 | 256 |

Series 2
Target: CCND2, cyclin fold, Cln2 fusion (human)
Method: yeast growth competition, sequencing
Sample: yeast
Notes: strong parent motif
Reference: not given
Direction: higher = stronger binding
Starting sequence: E2F1 docking peptide (human); PPVKRRLDFETDH
| Variant | normalised enrichment score |
| --- | --- |
| PPVKRRLDFETTH [D12T] | 1.43 |
| PPVKRRLDFHTDH [E10H] | 1.19 |
| PPVKRRLDFETAH [D12A] | 1.64 |
| PPVKRRMDFETDH [L7M] | 0.646 |
| PPVKRRRDFETDH [L7R] | 0.0381 |
| PPVKRRLDFFTDH [E10F] | 0.826 |
| PPYKRRLDFETDH [V3Y] | 0.0702 |
| PDVKRRLDFETDH [P2D] | 0.943 |

Series 3
Target: ABI1, truncated, D143A, DHFR fusion (Arabidopsis thaliana, UniProt P49597)
Method: DHFR PCA, dose-response
Sample: yeast
Notes: Hill fit, not affinity, not high confidence
Added: (+)-ABA, dose series
Direction: lower = more sensitive
Starting sequence: PYL1, truncated, DHFR fusion (Arabidopsis thaliana, UniProt Q8VZS8); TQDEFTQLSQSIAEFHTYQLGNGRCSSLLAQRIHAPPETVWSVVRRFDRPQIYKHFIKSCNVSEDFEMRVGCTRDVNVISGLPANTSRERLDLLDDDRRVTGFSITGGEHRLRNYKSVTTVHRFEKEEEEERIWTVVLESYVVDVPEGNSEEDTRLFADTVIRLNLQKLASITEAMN
| Variant | ABA EC50 [µM] |
| --- | --- |
| P50G | 290 |
| A158Q | 31.5 |
| A158I | 0.362 |
| V44D | 3.56 |
| V78G | 1430 |
| A84N | 100 |
| R99M | 9.78 |
| T154F | 605 |

Further values, each from its own experiment
| SMILES | target | read-out | mode | tested at | reference | endpoint | result |
| --- | --- | --- | --- | --- | --- | --- | --- |
| Cc1cncc2cccc(S(=O)(=O)N3CCCN(C(=O)CN)C[C@@H]3C)c12 | Homeodomain-interacting protein kinase 2 (HIPK2, Homo sapiens, UniProt Q9H2X6) | enzyme activity | inhibitor | 0.5 µM | control | remaining activity | 90.2% |
